Published values of several laboratories.
Protocols differ between the studies behind these lines. Several values in a cell are separate wells, animals, samples, runs or records. Numbers after ± are the reported error.
Host: human

SMILES | assay | system | setting | endpoint | result
Cc1cc(OCCOCCC(F)(F)P(=O)(O)O)ccc1CCc1cnc2c(N)nc3cc(CCC(=O)O)ccc3c2c1 | – | serum | intratumoral, 400 µg every 2 weeks, cycle 2 day 15 | AUC(tau) | 29.1 ng·h/mL
CS(=O)(=O)CCNCc1ccc(-c2ccc3ncnc(Nc4ccc(OCc5cccc(F)c5)c(Cl)c4)c3c2)o1 | – | plasma | 1250 mg/day, steady state, calculated | AUC(tau) | 41200 ng·h/mL
C[C@@H](Nc1cc(F)cc(F)c1)c1cc(C(=O)N(C)C)cc2c(=O)cc(N3CCOCC3)oc12 | – | – | oral, 120 mg twice daily, dose-finding arm, geometric LSM, added: abiraterone 1000 mg | AUC(tau) | 4410 ng·h/mL
Cc1ncnc2c1ccn2[C@@H]1C[C@H](Oc2cc(C(F)F)c(F)c3c2CNCC3)[C@@H](O)[C@H]1O | – | plasma | 8 mg once daily | AUC(tau) | 694 ng·h/mL and 1550 ng·h/mL
CC(C)(C)OC[C@@H]1C(=O)NCCN1C(=O)C[C@H](N)Cc1cc(F)c(F)cc1F | – | plasma | oral, dose not given, EP treatment, added: empagliflozin | AUC(tau) at steady state | 94.8 ± 21.9 ng·h/mL
N#Cc1ccc2c(c1)[C@H]1CCCN(C(=O)c3ccc4[nH]cnc4c3)[C@H]1C2 | – | plasma | oral, 240 mg once daily, steady state | AUC(tau) steady state | 142 µM·h
OC[C@H]1O[C@@H](c2ccc(Cl)c(Cc3ccc(O[C@H]4CCOC4)cc3)c2)[C@H](O)[C@@H](O)[C@@H]1O | – | plasma | oral, dose not given, EV treatment | AUC(tau) at steady state | 3040 ± 656 ng·h/mL
COCCc1ccc(OCC(O)CNC(C)C)cc1 (centres unmarked) | item: sum of R and S enantiomers | plasma | oral, 100 mg single dose | AUC(tau) | 504 ng·h/mL

A few entries again:
SMILES | assay | system | setting | endpoint | result
COCCc1ccc(OCC(O)CNC(C)C)cc1 (centres unmarked) | item: sum of R and S enantiomers | plasma | oral, 100 mg single dose | AUC(tau) | 504 ng·h/mL
